Published values gathered from unrelated publications.
Parts stem from different laboratories: compare values within a part only. Substitutions count along the parent as printed.

Series 1
Target: CREB3L2, bZIP domain (human)
Method: DHFR protein complementation
Matrix: yeast
Setting: single substitutions, most at no-binding floor
Relative to: wild-type JUN-FOS pair
Direction: higher = stronger binding
Endpoint: binding fitness
Parent: JUN, bZIP domain (human); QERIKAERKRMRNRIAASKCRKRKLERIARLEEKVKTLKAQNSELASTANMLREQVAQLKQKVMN; partner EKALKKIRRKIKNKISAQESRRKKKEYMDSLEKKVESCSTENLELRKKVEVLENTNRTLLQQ
A57G: -1.49 natural log
E44Q: -0.973 natural log
N42S: -1.51 natural log
L31W: -1.54 natural log
E32T: -1.53 natural log
R53L: -1.45 natural log
L31A: -1.43 natural log
A46H: -1.55 natural log
K36C: -1.49 natural log
N42C: -1.49 natural log
A46R: -1.31 natural log
L38V: -1.56 natural log
A57T: -1.37 natural log
K39T: -1.37 natural log
M51V: -1.54 natural log
N42A: -1.48 natural log
K36A: -1.35 natural log
N42R: -1.48 natural log
R53I: -1.54 natural log
K39H: -1.46 natural log
A46W: -1.4 natural log
I28A: -1.46 natural log

Series 2
Target: Protein max, full length (MAX, Homo sapiens, UniProt P61244-2, residues 1-151)
Method: protein-binding microarray
Molecule type: double-stranded DNA, one strand shown
Matrix: in vitro
Tested at: not given
Setting: k-mer, scored over probes, only values ≥0.25
Direction: higher = stronger binding
Endpoint: E-score
CATGTTGG: 0.308
CGCATGGA: 0.4
ATCTCGTG: 0.365
CCATGGCA: 0.284
ATAACGTG: 0.382
GACCACGA: 0.339
AGCATGCC: 0.41
CACACCCG: 0.251
ACGTGCTC: 0.456
ACCATATG: 0.383
AGCGTGAG: 0.316
GCTCCCCA: 0.26
ACGAGGGC: 0.374
CCGTACAC: 0.32
AAAGCGTG: 0.435
ACAACGTG: 0.464
ACTACACG: 0.322
ACGAGGTG: 0.282

Series 3
Target: UBE2V1 UBC core domain (UniProt Q13404)
Method: yeast two-hybrid
Matrix: yeast
Setting: mostly zero background
Relative to: not given
Direction: higher = stronger interaction
Endpoint: lacZ reporter activity
B1: ZMYND11 RING domain (UniProt Q15326); chain DEIDWETENHDWYCFECHLPGEVLICDLCFRVYHSKCLSDEFRLRDSSSPWQCPVCRSIKKKNTNKQEM
B2: HLTF RING domain (UniProt Q14527); chain LILSSGSDEECAICLDSLTVPVITHCAHVFCKPCICQVIQNEQPHAKCPLCRNDIHEDNLLE
B3: MKRN3 RING domain (UniProt Q13064); chain FAVQRGMDKVCGICMEVVYEKANPNDRRFGILSNCNHSFCIRCIRRWRSARQFENRIVKSCPQCRVTSELVIPSE
B4: TRIM41 RING domain (UniProt Q8WV44); chain PVQTLQEEAVCAICLDYFTDPVSIGCGHNFCRVCVTQLWGGEDEEDRDELDREEEEEDGEEE
B5: ZNRF4 RING domain (UniProt Q8WWF5); chain VRTFTWHNDLCAICLDEYEEGDQLKILPCSHTYHCKCIDPWFSQAPRRSCPVCKQSVAATEDSF
B6: RUFY1 RING domain (UniProt Q96T51); chain QALKGHAWLKDDEATHCRQCEKEFSISRRKHHCRNCGHIFCNTCSSNELALPSYPKPVRVCDSCHTLLLQRCSSTAS
B7: CNOT4 RING domain (UniProt O95628); chain MSRSPDAKEDPVECPLCMEPLEIDDINFFPCTCGYQICRFCWHRIRTDENGLCPACRKPYPED
B8: MARCHF1 RING domain (UniProt Q8TCQ1); chain TAPRSQSRLSVCPSTQDICRICHCEGDEESPLITPCRCTGTLRFVHQSCLHQWIKSSDTRCCELCKYDFIMETKLKPLRKWE
B9: RNF103 RING domain (UniProt O00237); chain WPADMLHCTECVVCLENFENGCLLMGLPCGHVFHQNCIVMWLAGGRHCCPVCRWPSYKKKQPY
B10: TRIM11 RING domain (UniProt Q96F44); chain LSTNLQEEATCAICLDYFTDPVMTDCGHNFCRECIRRCWGQPEGPYACPECRELSPQRNLRP
Construct (chain): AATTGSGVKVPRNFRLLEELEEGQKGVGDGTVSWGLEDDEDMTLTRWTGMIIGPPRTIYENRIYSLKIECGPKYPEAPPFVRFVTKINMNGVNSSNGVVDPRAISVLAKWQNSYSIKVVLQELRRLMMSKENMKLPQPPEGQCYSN
LVKDFNPYITCYICKGYLIKPTTVTECLHTFCKTCIVQHFEDSNDCPRCGNQVHETNPLE (PCGF5 RING domain (UniProt Q86SE9)): 0
B1 (ZMYND11 RING domain): 0
B2 (HLTF RING domain): 0
B3 (MKRN3 RING domain): 0
B4 (TRIM41 RING domain): 0
ASEEEFQFLRCQQCQAEAKCPKLLPCLHTLCSGCLEASGMQCPICQAPWPLGADTP (PML RING domain (UniProt P29590)): 0
FDPPLESKYECPICLMALREAVQTPCGHRFCKACIIKSIRDAGHKCPVDNEILLENQLFP (TRAF6 RING domain (UniProt Q9Y4K3)): 0
B5 (ZNRF4 RING domain): 0
FAEQPSVKLCCQLCCSVFKDPVITTCGHTFCRRCALKSEKCPVDNVKLTVVVNNI (TRAF7 RING domain (UniProt Q6Q0C0)): 0
B6 (RUFY1 RING domain): 0
B7 (CNOT4 RING domain): 0
ASPKIFQKTKCSICNSALELPSVHFLCGHSFHQHCFESYSESDADCPTCLPENRKVMDMI (VPS11 RING domain (UniProt Q9H270)): 0
B8 (MARCHF1 RING domain): 0
B9 (RNF103 RING domain): 0
B10 (TRIM11 RING domain): 0

Series 4
Target: CCNA2, cyclin fold, Cln2 fusion (human)
Method: yeast growth competition, sequencing
Matrix: yeast
Setting: strong parent motif
Relative to: not given
Direction: higher = stronger binding
Endpoint: normalised enrichment score
Parent: ORC1 docking peptide (human); PRARKRLELGNLG; partner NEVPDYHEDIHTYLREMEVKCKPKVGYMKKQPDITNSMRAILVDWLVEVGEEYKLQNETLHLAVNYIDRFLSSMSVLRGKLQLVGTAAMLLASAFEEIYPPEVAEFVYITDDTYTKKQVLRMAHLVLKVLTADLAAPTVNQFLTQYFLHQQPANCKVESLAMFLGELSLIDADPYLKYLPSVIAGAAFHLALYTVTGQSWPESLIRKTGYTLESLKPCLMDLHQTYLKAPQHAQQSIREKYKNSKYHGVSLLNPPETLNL
PRARKRCELGNLG [L7C]: 0.826
PRARKRLDLGNLG [E8D]: 6.2
PRARKALELGNLG [R6A]: 1.07
PRARKRIELGNLG [L7I]: 2.4
PRARKRLELGDLG [N11D]: 5.67
PRARKKLELGNLG [R6K]: 4.87
PRARKRLELGFLG [N11F]: 4.79
PRARKRNELGNLG [L7N]: 0.168
PRARKRLELYNLG [G10Y]: 6.43
PRAMKRLELGNLG [R4M]: 1.66
PRARKRLELGWLG [N11W]: 3.86
PRARKRLEDGNLG [L9D]: 0.458
PRARKRTELGNLG [L7T]: 0.227
YRARKRLELGNLG [P1Y]: 3.18
PRARKRLELGGLG [N11G]: 5.63
PRARKRLELTNLG [G10T]: 4.12
RRARKRLELGNLG [P1R]: 4.49
PRHRKRLELGNLG [A3H]: 0.999
PRARKRLGLGNLG [E8G]: 1.76
PRARKRLEKGNLG [L9K]: 0.747
PRARKRAELGNLG [L7A]: 1.03
PDARKRLELGNLG [R2D]: 2.91
PRARKRLLLGNLG [E8L]: 3.5
PRARKRMELGNLG [L7M]: 1.46
PRARKRLELQNLG [G10Q]: 3.79

Series 5
Target: ABI1, truncated, D143A, DHFR fusion (Arabidopsis thaliana)
Method: DHFR PCA, deep sequencing
Matrix: yeast
Setting: methotrexate growth selection, single substitutions
With: (+)-ABA 4.8 µM
Relative to: wild-type fitted maximum
Direction: higher = stronger binding
Endpoint: relative binding score
Parent: PYL1, truncated, DHFR fusion (Arabidopsis thaliana); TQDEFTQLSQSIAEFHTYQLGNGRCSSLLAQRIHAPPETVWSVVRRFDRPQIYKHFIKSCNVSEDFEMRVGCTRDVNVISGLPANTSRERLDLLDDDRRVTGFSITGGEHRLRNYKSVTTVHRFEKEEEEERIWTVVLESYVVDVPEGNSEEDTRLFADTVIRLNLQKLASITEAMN
F124A: 59.1%
E89A: -6.13%
L169K: -1.97%
R69Q: 65%
A35E: 11%
E127W: 53.6%
V143I: 9.22%
E152H: 57.3%
L20D: 75.9%
T6P: 82.2%
E147I: 55.1%
Q167Y: 14.5%
C60V: 68.5%
G108A: -2.83%
S9W: 52%
E130R: 73.3%
I79H: 69.7%
S117E: 0.0368%
S63D: 77.6%
D96A: 4.49%
I105T: 6.45%
L164D: -2.24%
S140L: -2.49%
D3A: 71.9%
W134A: 58.8%

Series 6
Target: RNA binding protein fox-1 homolog 2, RRM domain, GST-SBP tag (RBFOX2, Homo sapiens, UniProt O43251-10, residues 100-194)
Method: RNA Bind-n-Seq
Molecule type: RNA
Matrix: in vitro
Tested at: 365 nM
Setting: natural RNA segment, single round, ends assumed
Relative to: no-protein control
Direction: higher = stronger binding
Endpoint: RBNS enrichment (R)
Constant ends, left off below: GGGAGUUCUACAGUCCGACGAUC … UGGAAUUCUCGGGUGCCAA
Residues (chain): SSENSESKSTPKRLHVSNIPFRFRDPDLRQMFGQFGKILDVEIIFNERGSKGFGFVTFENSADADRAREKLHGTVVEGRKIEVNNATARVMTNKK
CUGUAUAGCAUGGAAGUCAACUGCAGCCCAUAUCACACCUGGUCCUGGGAAUGUGUCCUCAUCACUUUAAUUGCAGAGUUACUGGGAAAUCAUUGUGCUACUCUGUGGAU: 0.424
UGCAUUCAAGACACUUGCAAAUGUCUUUUUCUAAGCAGUAGUUAGAAAGAGCUCAAUUAUAGUAUUAACACCUUAAAGCCAAAACAUUUGUUCAACACAAACUACCAUCA: 0.501
GGCCUUGGAAUUUUGCUCCUUUAGUGGUAAGCAUGGGGCAUGGUUUGCUUUGGGGGGAGGAUGUUAAAAUCCAGAACUUAGCUAGUUAGUACCUGCAAGGCAGGUGAGGG: 4.67
AGCAUAUAUUUAUAUGAUAAGUUUAGAUUAUGAGCGUGAGUACCAAUUAAGUUUGAAUGAAUGCCCCUUUUAUGUAGAGUGCUGGUCCCCAGUCAUUGCUGUCUGCAAGU: 0.378
GGGCACUUAAAAGUUCUGUUAUUUUUGUUUGGUUUUGUUAUUUCAGUCCUCAGUUAAGGCAAGAAUGCAUGUGUUUCUUAAGAAUGAGUACUCUGCGUUGAUGUUUAUGA: 28
UGUGUUCAGUGUUUGACUCCAAAACAGCUGCCUGCUCCCUCAGUGUGCUCGGUGGGGAGAGGGCCGUCACGUCAAGGUCAUUGUUACUGCUUCCCUGGCUGAGUCACAGG: 1.07
UCCAAAAGCCACUUUAUUUAGGGUUUAUUCACAAGUCAUAUCCAUUUUGGUACAGUGUUUGUUUCCUAAUAUUUAUUAACCACCUUAUACCAAAUGUCUUGCAAAGAAAU: 0.932
UUCCAAAGGACCCGCGCACUUGGUCACUAGUCUUAGAAGAUGACACGGGGAUGGCAACCAACAGGACUGCUAACACCUGGUGGACCAUUCUGAGUCGAUAGAAGCAGUGG: 0.392
UCACUCUUAUAGGCCUACAUGCAGAUGGGCUUGAAGAGAAUUGGCCUUUCAUUUUUCACGCUCGUAUUUCCCCACCUGUCCAAGGGUGCAGAUAGCAGGAUUGUGGGGUC: 1.37
CUCGGUCUGUUUCCGACUACAGGCCCCGCUCAUGGGGCUGAGCCACCUAGAGCUGCACAGGGGGCUUUCGGCACUUCCCUGGAACAGUUGUAGGCCUGGCCUUUGCCCAG: 0.153
CACUCUGCUCAAGAGACGGAUGCACUCCUGCGCCCCGGUCUUCGGCCUGGACCCCACACGUUCAUAGUCUGUCCAGACACUGGGUGGCGGUCCUAAUGCACAGUGACCAA: 0.284
UUGAAUGUCAUAGAGCAUAUUUUCUCUUUUUGCCUGUUUGCACUCUGCCAUUGCACUUUGUAAAUCUGUAGAAUCGCUCGUAUAAAAUUUCUAUUAAAGAUUCUAGUGAA: 4.43

Repeated from above (series 4):
PRARKRLELGFLG [N11F]: 4.79
PRARKRLELGWLG [N11W]: 3.86
PRARKRCELGNLG [L7C]: 0.826
PRARKRTELGNLG [L7T]: 0.227
PRARKRLELGDLG [N11D]: 5.67
PRARKRNELGNLG [L7N]: 0.168
PRARKRLLLGNLG [E8L]: 3.5
RRARKRLELGNLG [P1R]: 4.49
PRARKRLELYNLG [G10Y]: 6.43
PRARKRMELGNLG [L7M]: 1.46
PRAMKRLELGNLG [R4M]: 1.66
PRHRKRLELGNLG [A3H]: 0.999
PRARKKLELGNLG [R6K]: 4.87
PRARKRLELGGLG [N11G]: 5.63
PRARKRLEKGNLG [L9K]: 0.747
PRARKRAELGNLG [L7A]: 1.03
PRARKRLELTNLG [G10T]: 4.12
PDARKRLELGNLG [R2D]: 2.91
